Experimental data collected from several papers.
Each line is one published result; not all experiments were run side by side. Numbers after ± are the reported error.

CC(C)[C@H](NC(=O)CNC(=O)[C@H](CCC(N)=O)NC(=O)[C@H](C)N)C(=O)O — subjects with severe AE (healthy male volunteers; intravenous, 90 mg/kg/h, 2 h, added: LPS 2 ng/kg): 0%
CC[C@H](C)C(=O)N1CCC(NC(=O)Nc2ccc(OC(F)(F)F)c(F)c2)CC1 — subjects with headache TEAE (healthy volunteers; oral, 16 mg single dose): 0%
CC(C)[C@H](NC(=O)CNC(=O)[C@H](CCC(N)=O)NC(=O)[C@H](C)N)C(=O)O — discontinuation due to adverse events (human; 1 mg/kg single dose): 0%
CC[C@H](C)[C@H](NC(=O)[C@H](Cc1ccc(O)cc1)NC(=O)[C@H](C)NC(=O)[C@H](CC(=O)O)NC(=O)[C@H](CC(C)C)NC(=O)[C@H](C)NC(=O)[C@H](C)NC(=O)[C@H](CCCCN)NC(=O)CNC(=O)[C@@H](NC(=O)[C@H](Cc1c[nH]cn1)NC(=O)[C@H](CCCCN)NC(=O)CNC(=O)[C@@H](NC(=O)[C@H](Cc1c[nH]cn1)NC(=O)[C@@H](NC(=O)[C@H](C)NC(=O)[C@H](CCCCN)NC(=O)[C@H](CCCCN)NC(=O)[C@@H](NC(=O)[C@H](Cc1c[nH]c2ccccc12)NC(=O)[C@H](CCCCN)NC(=O)[C@H](CCCNC(=N)N)NC(=O)[C@H](Cc1c[nH]c2ccccc12)NC(=O)CN)[C@@H](C)CC)[C@@H](C)O)C(C)C)[C@@H](C)CC)C(N)=O — acute toxic concentration (zebrafish embryos; 1 h, 4, 28, 52 hpf): 5 µg/mL
C[C@H]1N=C(c2ccccc2F)c2cc(Br)ccc2-n2cnc(C(=O)NCCS(=O)(=O)O)c21 — cumulative excretion (LC-MS/MS; Swiss Webster mouse, female, urine; intravenous, 250 µg parent drug, 0 to 24 h): 0.6 ± 0.1%
COc1ccnc(-c2cc(OC)ccn2)c1.O.[C-]#[O+].[C-]#[O+].[C-]#[O+].[Re+] — capacity factor (RP-HPLC C18 column, measured: free diimine ligand; MeCN:water 40:60, 0.1% TFA; isocratic elution): 0.74
CC[C@H](C)[C@H](N)C(=O)N[C@H](C(=O)N[C@@H](CO)C(=O)N[C@H](C(=O)N[C@H](C(=O)NCC(=O)N[C@@H](CC(=O)O)C(=O)N[C@@H](CC(C)C)C(=O)N[C@H](C(=O)N[C@@H](CCCCN)C(=O)N[C@@H](Cc1c[nH]c2ccccc12)C(=O)N[C@H](C(=O)N[C@H](C(=O)N[C@@H](CC(=O)O)C(=O)N[C@H](C(=O)N[C@H](C(=O)N[C@@H](CC(N)=O)C(=O)N[C@@H](CCCCN)C(=O)N[C@@H](Cc1ccccc1)C(=O)N[C@H](C(=O)N[C@@H](CCCCN)C(=O)N[C@@H](CCCCN)C(=O)O)[C@@H](C)O)C(C)C)[C@@H](C)O)[C@@H](C)CC)[C@@H](C)CC)C(C)C)[C@@H](C)CC)[C@@H](C)O)[C@@H](C)CC — fractional helicity (circular dichroism; POPC vesicles; pH 7.5): 1
COc1cc2ccnc(Cc3ccc(O[11CH3])c(OC)c3)c2cc1OC — tissue uptake (Sprague-Dawley rats, heart; intravenous, 0.5 h): 0.092 ± 0.017 %ID/g
Cc1cc(O)cc(O)c1C(=O)c1c2c3c(c(O)cc(C)c3oc1=O)C(=O)c1c(O)cc(O)cc1-2 — MTD (general toxicity; Kunming mouse; intraperitoneal, single dose): > 400 mg/kg
C[C@@H](O)[C@H](NC(=O)[C@H](CCCCN)NC(=O)[C@H](Cc1c[nH]c2ccccc12)NC(=O)CN)C(=O)N[C@@H](CCCNC(=N)N)C(=O)NC(C)(C)C(=O)N[C@@H](CCCNC(=N)N)C(=O)NC(C)(C)C(=O)N[C@H](C(=O)N[C@@H](CO)C(=O)N[C@@H](Cc1c[nH]cn1)C(=O)N[C@@H](Cc1ccc(O)cc1)C(=O)NCC(=O)O)[C@@H](C)O — alkaline phosphatase (C57BL/6 mouse, blood; intravenous, 50 mg/kg, 10 h): 100 to 214 U/L
